Experimental data from different studies.
± marks the error that the study gave.

acyline
serum DHT (human men; sc, 300 µg/kg, 24 h): 9.9 ± 5.4 ng/dL

CC[C@@H]1NC(C)(C)CO[C@@]1(O)c1cccc(Cl)c1
ED50 (nicotine antinociception blockade, antagonist, tail-flick test; mouse; 15 min pretreatment, added: nicotine 2.5 mg/kg subcutaneous): 0.004 mg/kg

Cc1cccc(Cn2cc(COCc3cnc(C)c(O)c3CO)nn2)c1
absorbance change (Zn2+ chelation; 100 µM, 30 min, 37 °C, added: Zn2+ 100 µM): 0%

O=S(=O)(F)Cc1ccccc1
Aβ degradation (inhibitor; mouse microglia conditioned medium; concentration not given, added: Aβ1-42 1 µg/mL; baseline: vehicle): inhibited

C[C@]12N3Cc4c(c(OCCCS(=O)(=O)[O-])c5ccccc5c4OCCCS(=O)(=O)[O-])CN1C(=O)N1CN4C(=O)N5CN6C(=O)N7CN8C(=O)N9Cc%10c(c(OCCCS(=O)(=O)[O-])c%11ccccc%11c%10OCCCS(=O)(=O)[O-])CN%10C(=O)N(CN%11C(=O)N(CN%12C(=O)N(CN(C3=O)[C@]12C)[C@@H]4[C@H]%125)[C@@H]6[C@H]%117)[C@]8(C)[C@@]9%10C.[Na+].[Na+].[Na+].[Na+]
time to recovery of righting reflex (Sprague-Dawley rat; intravenous, 80 mg/kg/min from 3 min, added: propofol i.v. bolus): 13 ± 1.3 min

CC(=O)N[C@@H](CC(C)C)C(=O)NCC(=O)N[C@@H](Cc1ccc(O)cc1)C(=O)NCC(=O)N[C@@H](CCCCN)C(N)=O
transition enthalpy (DSC; SOPC/cholesterol 6/4 bilayers; 15 mol%, pH 7.40): 0.3 kcal/mol

atrial natriuretic peptide
fractional shortening (rat high-fat streptozotocin diabetes; subcutaneous pump, 2 pmol/kg/min, 6 weeks, added: sacubitril 18 mg/kg/day oral): ~50%

C=C[C@H]1[C@H]2CCC[C@]1(c1cccc(C(N)=O)c1)CCN2CCc1ccccc1
effective dose (pain-depressed locomotion; mice; subcutaneous, added: intraperitoneal 0.56% lactic acid; baseline: vehicle): 10 to 18 mg/kg

Cc1ccc(NC(=S)NS(=O)(=O)c2cnc(NN)[nH]c2=O)cc1
glucose AUC (oral glucose tolerance test; HFD/STZ type 2 diabetic rat; oral, 10 mg/kg, added: glucose 1 g/kg): 462 ± 35.6 mg·min/dL

C[C@@H]1NC(C)(C)CO[C@@]1(O)c1cccc(Cl)c1
ED50 (nicotine antinociception blockade, antagonist, tail-flick test; mouse; 15 min pretreatment, added: nicotine 2.5 mg/kg subcutaneous): 0.2 mg/kg

CCCCCc1cc(O)c(C/C=C(\C)CCC=C(C)C)c(O)c1C(=O)O
seizure threshold current CC50 (maximal electroshock threshold; Swiss mice male; intraperitoneal, 30 mg/kg, 45 min pretreatment, 50% of mice seizing; baseline: vehicle): increased

CC(=O)N[C@@H](CC(C)C)C(=O)N1CCC[C@H]1C(=O)N[C@@H](Cc1ccc(O)cc1)C(=O)N1CCC[C@H]1C(=O)N[C@@H](CCCCN)C(N)=O
transition enthalpy (DSC; SOPC/cholesterol 7/3 bilayers; 5 mol%, pH 7.40): 0.4 kcal/mol

CC(NC(C)(C)C)C(=O)c1cccc(Cl)c1 (stereo not drawn)
ED50 (nicotine conditioned place preference, antagonist; mouse; sc, added: nicotine 0.5 mg/kg sc): 0.35 mg/kg

CC(C)C[C@H](NC(=O)[C@H](CC(C)C)NC(=O)[C@H](CCCCN)NC(=O)[C@H](C)NC(=O)[C@H](CC(C)C)NC(=O)[C@H](CCCCN)NC(=O)[C@H](CCCCN)NC(=O)[C@H](CC(C)C)NC(=O)[C@H](C)NC(=O)[C@H](CCCCN)NC(=O)[C@H](CCCCN)NC(=O)[C@H](Cc1ccc(O)cc1)NC(=O)[C@@H](N)CCCCN)C(N)=O
leakage (carboxyfluorescein release; EYPG vesicles; 10 µg/mL, 250 s, pH 7.4, 25 °C; baseline: Triton X-100): 60%

Cc1ccc2cc3c(ccc4ccccc43)c3c2c1CC3
minimal protective dose (adrenal haemorrhage prevention; rat; oral, added: 7,12-DMBA 5 mg i.v.): 0.25 mg

CSCC[C@H](NC(=O)[C@H](CC(C)C)NC(=O)[C@H](C)N)C(=O)N[C@@H](CC(C)C)C(=O)N[C@@H](CCCNC(=N)N)C(=O)N[C@@H](CC(C)C)C(=O)N[C@@H](CC(C)C)C(=O)N[C@@H](CCCNC(=N)N)C(=O)N[C@H](C(=O)O)[C@@H](C)O
IFN-γ+ CD8+ T cells (PBMC, human, HSV-1 seropositive, HLA-A*0201+; 10 µg/mL, 72 h): ≤ 4.1%

CATTTGTCCACTGGCGTCCGGTCCATTACTCATCGATTCC (dsDNA)
Kd (HapB/HapC/HapE/HapX HapX 24-158 (Aspergillus fumigatus); SPR; double-stranded DNA, one strand shown; HapX on preformed CBC:DNA): < 100 nM

CCCCCC(O)C=CC=O (stereo not drawn)
log k (reaction with cysteine thiol; pH 7.4, corrected for thiolate fraction): 1.76

CC1=C(C(=O)O)C(c2ccccc2Cl)NC(=S)N1 (stereo not drawn)
mean arterial pressure (carotid artery cannulation; male Wistar rats, anaesthetised; 0.3 mL, 3 h): 24.8 ± 0.94 mm Hg

CCCCCCCCCCCCCC(=O)O[C@@H]1[C@@H](C)[C@@]2(O)[C@@H](C=C(CO)C[C@]3(O)C(=O)C(C)=C[C@@H]23)[C@@H]2C(C)(C)[C@]12OC(C)=O
Yes phosphorylation (item: Yes pY416; rat; 1 µM, 2.5 min, no PKC inhibitor; baseline: control): 369 ± 41%

CC(C)C[C@@H]1NC(=O)[C@@H](Cc2c[nH]c3ccccc23)NC(=O)[C@H](CCCCN)NC(=O)[C@@H](Cc2c[nH]cn2)NC(=O)[C@H](CO)NC(=O)[C@@H](Cc2c[nH]cn2)NC(=O)[C@H](CCCCN)NC(=O)[C@@H](Cc2c[nH]c3ccccc23)NC1=O
time to increased Bacteroidetes/Firmicutes ratio (16S rRNA sequencing, item: gut microbiota; LDLr-/- mice, Western diet, feces; oral, 35 mg/kg daily; baseline: vehicle): ≤ 2 weeks

c1ccc2c(c1)cc1ccc3cccc4ccc2c1c34
menadione reductase activity (inducer; female rat, liver; oral, 10 mg, 24 h, sesame oil vehicle): 56 enzyme units

CCOC(=O)[C@H](C)C[C@@H](Cc1ccc(-c2ccccc2)cc1)NC(=O)CCC(=O)O
ejection fraction (rat high-fat streptozotocin diabetes; drinking water, 18 mg/kg/day, 6 weeks, added: ANP 2 pmol/kg/min s.c.): 87%

O=C(NCc1ccc(-c2ccccc2)cc1)c1cccc(=O)n1O
ventricular weight (rat, isolated perfused stunned heart; dose not given, 20-25 min ischaemia, 30 min reperfusion): 58.7 ± 2.1 mg

CC(C)C[C@H](NC(=O)[C@H](C)NC(=O)[C@H](CCCNC(=N)N)NC(=O)[C@@H](NC(=O)CNC(=O)[C@@H]1CCCN1C(=O)[C@H](Cc1c[nH]c2ccccc12)NC(=O)[C@H](Cc1ccc(O)cc1)NC(=O)[C@@H](N)CC(C)C)C(C)C)C(=O)N[C@@H](CC(C)C)C(=O)NCC(=O)O
EC50 (IFN-γ release, ELISPOT; splenocytes, BALB/c mouse immunised): 1000 nM

CC(C)(NC(=O)O[C@@H]1CN2CCC1CC2)c1csc(-c2ccc(F)cc2)n1
chitotriosidase activity decrease (sample A patients, CSF; dose not given, week 52, added: imiglucerase; baseline: baseline): 29%

Cc1ncc(COCc2cn(Cc3cc(F)cc(F)c3)nn2)c(CO)c1O
absorbance change (Cu2+ chelation; 100 µM, 30 min, 37 °C, added: Cu2+ 100 µM): 0%

melittin
free energy of partitioning (CD titration; POPC 75% POPG 25% vesicles; pH 7.0, 50 °C): -7.28 kcal/mol

CC1=C(C(=O)Nc2ccc(C)cc2)C(c2ccccc2Cl)NC(=S)N1 (stereo not drawn)
mean arterial pressure (carotid artery cannulation; male Wistar rats, anaesthetised; 0.3 mL, 3 h): 22.8 ± 1.13 mm Hg

CCN[C@@H]1C[C@H](N)[C@@H](O[C@H]2OC(CN)=CC[C@H]2N)[C@H](O)[C@H]1O[C@H]1OC[C@](C)(O)[C@H](NC)[C@H]1O
IC50 (luciferase synthesis, inhibitor, coupled transcription-translation; M. smegmatis 70S ribosomes, human hybrid; 60 min, 37 °C): 64000 nM

CC(C)[C@H](O)C(=O)N[C@H]1Cc2ccc3c(c2)[C@]2(C4=C(c5nc(CO)co5)N=C(O4)[C@H](C(C)(C)C)NC1=O)c1cc(F)ccc1N[C@@H]2O3
minimum effective dose (tumour volume; mice, MIA PaCa-2 xenograft; baseline: vehicle): 1.13 mg/m²

CC[C@H](C)[C@H](NC(=O)CNC(=O)[C@H](Cc1c[nH]c2ccccc12)NC(=O)CNC(C)=O)C(=O)N[C@@H](CCCCN)C(N)=O
transition enthalpy (DSC; SOPC/cholesterol 6/4 bilayers; 5 mol%, pH 7.40): 0.5 kcal/mol

CCOC(=O)C1=C(C)NC(=S)NC1c1ccccc1Br (stereo not drawn)
mean arterial pressure (carotid artery cannulation; male Wistar rats, anaesthetised; 0.3 mL, 3 h): 23 ± 0.97 mm Hg

NC[C@@H]1O[C@H](O[C@H]2[C@@H](O)[C@H](O[C@@H]3[C@@H](O)[C@H](N)C[C@H](N)[C@H]3O[C@H]3O[C@H](CO)[C@@H](O)[C@H](O)[C@H]3N)O[C@@H]2CO)[C@H](N)[C@@H](O)[C@@H]1O
IC50 (luciferase synthesis, inhibitor, coupled transcription-translation; M. smegmatis 70S ribosomes, Leishmania/Trypanosoma hybrid; 60 min, 37 °C): 180 nM

CC1=C(C(=O)O)C(c2ccccc2C#N)NC(=S)N1 (stereo not drawn)
mean arterial pressure (carotid artery cannulation; male Wistar rats, anaesthetised; 0.3 mL, 3 h): 24.7 ± 1.25 mm Hg

bovine insulin
glucose reduction (Sprague-Dawley rat, fasted; ileal loop, 50 IU/kg): 12.6 ± 9.85%
